Published values of several laboratories.
Parts stem from different laboratories: compare values within a part only. Several values in a cell are separate wells, animals, samples, runs or records.

Study 1
Cell line: normal-adjacent epithelium patient-derived organoids sample H
Technique: CellTiter-Glo
Tested at: 1 µM
Relative to: DMSO
| Structure (SMILES) | viability |
| --- | --- |
| CCC(=N\O)/C(C)=C/c1ccc(F)cc1 | 114% and 90.9% |
| COc1ccc2c(O[C@@H]3C[C@H]4C(=O)N[C@]5(C(=O)O)CC5/C=C\CCCCC[C@H](NC(=O)OC5CCCC5)C(=O)N4C3)cc(-c3csc(NC(=O)C(C)C)n3)nc2c1C (stereo partly shown) | 93% and 105% |
| COCc1nc2cnc3cc(-c4c(C)noc4C)c(OC[C@H]4CCNC4)cc3c2n1[C@H](C)c1ccccc1 | 91.4% |
| Cl.Cl.NC1(c2ccc(-c3nc4ccn5c(=O)[nH]nc5c4cc3-c3ccccc3)cc2)CCC1 | 80.1% and 112% |
| Cn1cc(-c2ccc3occ(-c4cccc(-c5ccncc5)c4)c3n2)cn1 | 109% |
| CCOc1cn(-c2ccc(F)cc2C)nc1C(=O)Nc1ccc(Oc2ccnc3cc(OC)c(OC)cc23)c(F)c1 | 97.4% and 122% |
| O=C(Nc1cccnn1)N1CC(CC=Cc2cncc(Oc3ccc(C(F)(F)F)cn3)n2)C1 | 110% and 96.2% |
| COc1cc(Nc2ncc3c(n2)-c2ccc(Cl)cc2C(c2c(F)cccc2OC)=NC3)ccc1C(=O)O | 17.7% |
| CCNC(=O)c1cc2c(N3CCOC[C@H]3C)ccnc2n1C | 118% and 109% |
| CCCCNc1ncc(-c2ccc(CN3CCOCC3)cn2)c(NC2CCC(O)CC2)n1 (stereo not shown) | 105% and 125% |
| Cc1cc2c(-c3ccco3)cnc(N[C@@H]3CCN(C)C[C@H]3C(=O)NC3CCCCC3)c2[nH]c1=O | 74.9% |

Study 2
Target: Serine/threonine-protein kinase haspin (HASPIN, Homo sapiens, UniProt Q8TF76)
Sequence of UniProt Q8TF76 (whole entry, looked up): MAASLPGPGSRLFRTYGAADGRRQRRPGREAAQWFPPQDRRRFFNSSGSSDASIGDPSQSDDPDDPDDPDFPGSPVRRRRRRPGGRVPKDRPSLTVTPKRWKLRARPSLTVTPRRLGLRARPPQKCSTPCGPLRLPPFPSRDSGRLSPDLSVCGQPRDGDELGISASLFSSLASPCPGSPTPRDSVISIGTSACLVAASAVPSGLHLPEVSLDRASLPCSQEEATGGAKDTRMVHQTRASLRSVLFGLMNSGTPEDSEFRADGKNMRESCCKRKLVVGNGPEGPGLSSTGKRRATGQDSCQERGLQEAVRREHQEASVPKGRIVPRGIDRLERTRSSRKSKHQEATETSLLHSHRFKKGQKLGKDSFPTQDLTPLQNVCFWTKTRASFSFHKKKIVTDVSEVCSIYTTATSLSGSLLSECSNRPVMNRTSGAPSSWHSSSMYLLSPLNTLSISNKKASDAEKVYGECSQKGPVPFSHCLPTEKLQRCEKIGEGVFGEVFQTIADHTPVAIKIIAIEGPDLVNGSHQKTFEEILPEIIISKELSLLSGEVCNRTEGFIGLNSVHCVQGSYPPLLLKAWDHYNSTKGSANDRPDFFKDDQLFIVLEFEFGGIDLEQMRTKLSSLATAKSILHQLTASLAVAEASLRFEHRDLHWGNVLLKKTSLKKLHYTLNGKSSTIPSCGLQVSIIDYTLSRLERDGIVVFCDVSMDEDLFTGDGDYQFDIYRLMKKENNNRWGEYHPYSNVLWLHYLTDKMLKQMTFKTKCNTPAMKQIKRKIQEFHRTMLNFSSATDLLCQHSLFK
Observed: enzyme activity
Action: inhibitor
Tested at: 0.5 µM
Relative to: control
| SMILES | remaining activity |
| --- | --- |
| COc1cc2c(Nc3ccc(Br)cc3F)ncnc2cc1OCC1CCN(C)CC1 | 92.6% |
| N#C/C(=C(/N)SC1C=CC=CC1)c1cccc(C(O)c2ccncc2)c1 (stereo not shown) | 94.7% |
| CC(C)(C)c1nc2c3cc[nH]c(=O)c3c3cc(F)ccc3c2[nH]1 | 67.2% |
| Clc1ccc(Nc2nnc(Cc3ccncc3)c3ccccc23)cc1 | 70% |
| Nc1nc(Nc2ccc(S(N)(=O)=O)cc2)nn1C(=S)Nc1c(F)cccc1F | 85.3% |
| N#CC(c1ccnc(NCCc2cccnc2)n1)c1nc2ccccc2s1 (stereo not shown) | 31% |
| COc1cc2c(N3CCN(C(=O)Nc4ccc(OC(C)C)cc4)CC3)ncnc2cc1OCCCN1CCCCC1 | 99.5% |
| O=C(c1ccccc1)c1ccc(N2CCOCC2)cc1O | 98.5% |
| CCN(CC)CCCCN1c2ccccc2Oc2ccc(Cl)cc21 | 104% |
| O=C(O)/C=C/c1cc(Br)c(Br)c(Br)c1Br | 88.4% |
| C[C@@H](N)[C@H]1CC[C@H](C(=O)Nc2ccncc2)CC1 | 92.4% |
| CC(C)N(CCC(=O)c1ccc2ccccc2c1)Cc1ccccc1 | 95.6% |

Study 3
Cell line: A-375
Tested at: 100 µM
Time: 18 h
| Structure (SMILES) | viability |
| --- | --- |
| CN(C)CCOC(C)(c1ccccc1)c1ccccn1 (stereo not shown) | 43.7% |
| CC(C)(C)c1nc(-c2cccc(NS(=O)(=O)c3c(F)cccc3F)c2F)c(-c2ccnc(N)n2)s1 | 96% |
| COC(=O)C1=C(C)NC(C)=C(C(=O)OCC(C)C)C1c1ccccc1[N+](=O)[O-] (stereo not shown) | 18.1% |
| NCCCC(N)(C(=O)O)C(F)F (stereo not shown) | 93.8% |
| COc1ccccc1OCC(O)CO (stereo not shown) | 91.7% |
| O=C(Nc1ccc(Cl)cc1)c1cc(Br)ccc1O | 26.4% |
| COc1ccc(C(Cl)=C(c2ccc(OC)cc2)c2ccc(OC)cc2)cc1 | 89.2% |
| CC1(C)C(C=C(Cl)Cl)C1C(=O)OCc1cccc(Oc2ccccc2)c1 (stereo not shown) | 60.5% |
| CC(C)(CO)[C@@H](O)C(=O)NCCCO | 96.7% |
| NC(=O)CCCCC1CCSS1 (stereo not shown) | 98.6% |
| CC(/C=C/C=C(\C)C(=O)O[C@@H]1O[C@H](CO[C@@H]2O[C@H](CO)[C@@H](O)[C@H](O)[C@H]2O)[C@@H](O)[C@H](O)[C@H]1O)=C\C=C\C=C(C)\C=C\C=C(/C)C(=O)O[C@@H]1O[C@H](CO[C@@H]2O[C@H](CO)[C@@H](O)[C@H](O)[C@H]2O)[C@@H](O)[C@H](O)[C@H]1O | 111% |
| CCOC(=O)[C@H](CCc1ccccc1)N[C@@H](C)C(=O)N(CC(=O)O)C1Cc2ccccc2C1 | 70.8% |
| O=C(Nc1ccc([N+](=O)[O-])cc1Cl)c1cc(Cl)ccc1O | 45.2% |

Study 4
Cell line: mouse MPNST tumor cells
Technique: high-content immunofluorescence imaging
Measured: nuclear SOX9
Tested at: 10 µM
Time: 12 h
Notes: mean of 2 replicates
Relative to: DMSO control
Direction: higher = more nuclear SOX9
| SMILES | nuclear SOX9 intensity |
| --- | --- |
| COc1cc(NC(=O)c2ccccn2)ccc1Cl | 102 % of DMSO |
| CC(CN1c2ccccc2Sc2ccccc21)N(C)C (stereo not shown) | 123 % of DMSO |
| O=C(Oc1cccc(F)c1OC(=O)c1cccc(O)c1)c1cccc(O)c1 | 109 % of DMSO |
| CCOC(=O)c1ncn2c1CN(C)C(=O)c1cc(F)ccc1-2 | 107 % of DMSO and 98.4 % of DMSO |
| Cc1cc(C)c(C)c(S(=O)(=O)Nc2ccc(N3CC[C@H](C(=O)O)C3)c3ccccc23)c1C | 85.6 % of DMSO |
| CCN(CC)C(=O)c1ccc(O)c(OC)c1 | 103 % of DMSO |
| CC1(C)[C@@H](OC(=O)CCC(=O)O)CC[C@]2(C)[C@H]3C(=O)C=C4[C@@H]5C[C@@](C)(C(=O)O)CC[C@]5(C)CC[C@@]4(C)[C@]3(C)CC[C@@H]12 | 102 % of DMSO |
| COc1nc(C)nc(Cl)c1NC1=NCCN1 | 89.9 % of DMSO and 93.5 % of DMSO |
| C=C1c2cccc(O)c2C(O)=C2C(=O)[C@]3(O)C(O)=C(C(N)=O)C(=O)[C@@H](N(C)C)[C@@H]3[C@@H](O)[C@H]12 | 99.9 % of DMSO |
| O=C(O)c1ccc(-c2c[nH]c3ncc(-c4ccccc4)cc23)cc1C1CCCC1 | 99.1 % of DMSO |
| CC1(c2ccccc2)OC(C(=O)O)=CC1=O (stereo not shown) | 94.8 % of DMSO |
| COc1ccc(CNC(=O)c2sc3nc(C)cc(C)c3c2N)cc1 | 118 % of DMSO |
| CC[N+](CC)(CC)CCC(O)(c1ccccc1)C1CCCCC1 (stereo not shown) | 87.7 % of DMSO |
| CC(C)NCC(O)COc1ccc(CCOCC2CC2)cc1 (stereo not shown) | 120 % of DMSO |
| CC(=O)[C@@]1(O)CC[C@H]2[C@@H]3C[C@H](C)C4=CC(=O)C=C[C@]4(C)[C@@]3(F)[C@@H](O)C[C@@]21C | 67.3 % of DMSO |
| O=C(c1cccc(Br)c1)N1CCC(N2CCCC2)CC1 | 84.6 % of DMSO |

Repeated from above (study 2):
| SMILES | remaining activity |
| --- | --- |
| N#C/C(=C(/N)SC1C=CC=CC1)c1cccc(C(O)c2ccncc2)c1 (stereo not shown) | 94.7% |
| CC(C)(C)c1nc2c3cc[nH]c(=O)c3c3cc(F)ccc3c2[nH]1 | 67.2% |
| Clc1ccc(Nc2nnc(Cc3ccncc3)c3ccccc23)cc1 | 70% |
| Nc1nc(Nc2ccc(S(N)(=O)=O)cc2)nn1C(=S)Nc1c(F)cccc1F | 85.3% |
| N#CC(c1ccnc(NCCc2cccnc2)n1)c1nc2ccccc2s1 (stereo not shown) | 31% |
